Measurements pooled from the literature.
Each numbered part is a random draw from the data of one study; scales do not carry over between parts.

Series 1
Target: Ras GTPase-activating protein-binding protein 1, full length (G3BP1, Homo sapiens, UniProt Q13283)
Sequence of UniProt Q13283 (whole entry, looked up): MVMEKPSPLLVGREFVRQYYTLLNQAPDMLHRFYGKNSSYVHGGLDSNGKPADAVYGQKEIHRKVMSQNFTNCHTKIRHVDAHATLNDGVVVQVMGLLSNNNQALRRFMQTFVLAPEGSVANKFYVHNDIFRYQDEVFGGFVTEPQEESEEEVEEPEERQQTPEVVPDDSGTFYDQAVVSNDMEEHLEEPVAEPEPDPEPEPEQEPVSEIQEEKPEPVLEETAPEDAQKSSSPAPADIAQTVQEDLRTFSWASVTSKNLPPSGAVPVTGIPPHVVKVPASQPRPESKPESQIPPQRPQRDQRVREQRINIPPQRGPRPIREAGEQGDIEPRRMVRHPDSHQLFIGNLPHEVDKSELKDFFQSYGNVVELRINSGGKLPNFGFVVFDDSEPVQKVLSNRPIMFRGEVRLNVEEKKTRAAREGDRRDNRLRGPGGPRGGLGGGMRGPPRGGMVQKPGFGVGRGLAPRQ
Technique: RNA Bind-n-Seq
Molecule type: RNA
Medium: in vitro
Tested at: 200 nM
Setting: whole 134-nt RNA, ends assumed
Together with: 150 mM LiCl
Baseline: input library
Reading: higher = stronger binding
Each molecule: 7-deaza-guanosine replaces G
`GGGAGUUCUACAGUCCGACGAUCACCAUGCAGGUGGGCAUCUUUGGGAAGUGGGGCAAGGGGGGGAUAGGGAGGGAAAUAACACUUUGGGAACAGGUGGUCCCAGGUCGUUUCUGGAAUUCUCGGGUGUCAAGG` gave a log2 enrichment of 0.266.
For `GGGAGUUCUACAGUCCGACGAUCUUGUGAGAGCCACAGGAAAAGCAAGAAGGAGAAGAAGAAAAAGAAAAAGAGGAAACACAAGAAAGAGAAGAAGAAGAAAGACAAAGAGCAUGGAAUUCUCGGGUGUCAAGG`, the log2 enrichment was 0.213.
`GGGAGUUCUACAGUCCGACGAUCUGGCGCUGGUGGCAUGCGGGGAGGAAGAGGUGGCCUCAUGGAUCGUGGUGGUCCCGGUGGAAUGUUCAGAGGUGGCCGUGGUGGAGACAGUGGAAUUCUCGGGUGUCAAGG` has a log2 enrichment of 0.164.
For `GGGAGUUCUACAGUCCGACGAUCGCAGGAAGUAAAAACAAAUGGAAAUGCUUCGGAUAGUGGCAGGGGUGGGGGUUGCUAAGGAAAGGGUGGGAUGGGAGUGGGUAAGGAGUUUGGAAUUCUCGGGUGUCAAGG`, the log2 enrichment was -0.141.
With `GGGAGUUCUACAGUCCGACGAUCCUGUGCUACACAUCGUAUGUACCGAAUCGGGUUUUUUUGGGGUUUUUUUGGGGUUUUUUUGGAAAGUAUUAUGUUACGCCGUUCGGAUCUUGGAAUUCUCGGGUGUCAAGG` the log2 enrichment was 1.84.
`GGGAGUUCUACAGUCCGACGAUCCCUCAAGUCCUGUGCUACACAUCGUAUGUACCGAAUCGGUGGGUGGGUGGGGAAAGUAUUAUGUUACGCCGUUCGGAUCUGCACUUCCAGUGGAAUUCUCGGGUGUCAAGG` gave a log2 enrichment of 0.17.

Series 2
Target: Phosphate system positive regulatory protein PHO4, full length, GST-tagged (PHO4, Saccharomyces cerevisiae, UniProt P07270, residues 1-312)
Technique: competition protein-binding microarray
Molecule type: double-stranded DNA, one strand shown
Medium: in vitro
Tested at: 2 µM
Setting: whole 60-bp probe, lowest competitor level
Together with: Cbf1 competitor, 0.05 µM
Reading: higher = stronger binding
Target sequence (chain): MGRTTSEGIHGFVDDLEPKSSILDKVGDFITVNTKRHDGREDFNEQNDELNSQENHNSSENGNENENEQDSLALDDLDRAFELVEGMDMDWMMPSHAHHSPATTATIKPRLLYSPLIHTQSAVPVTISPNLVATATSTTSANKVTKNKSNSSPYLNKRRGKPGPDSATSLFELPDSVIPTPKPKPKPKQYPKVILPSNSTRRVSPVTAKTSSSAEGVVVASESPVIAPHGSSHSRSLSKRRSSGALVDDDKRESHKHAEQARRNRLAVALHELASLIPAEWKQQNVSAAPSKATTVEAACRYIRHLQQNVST
`ACAACCGTCTATGATGACGTGTTGACATTATCAAACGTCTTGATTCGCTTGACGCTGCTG` gave a fluorescence intensity of 6050 a.u.
For `CGGGGTTAAGTTTGACAGGTGGGTGGCTTGCAGCAGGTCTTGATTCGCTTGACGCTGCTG`, the fluorescence intensity was 6620 a.u.
With `GTCAGAAAGCCGGGTAAGGTGTGCCAGCGAGAGTAAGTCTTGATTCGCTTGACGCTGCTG` the fluorescence intensity was 5510 a.u.
`GCGCAAAATGGCGTCACCGTGAAAAAGGAGGAGGATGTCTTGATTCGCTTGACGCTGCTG` has a fluorescence intensity of 3260 a.u.
The fluorescence intensity of `CATACCCAACCTTGACTAGTGGGTGAAGATATTTGTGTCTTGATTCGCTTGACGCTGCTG` is reported as 3580 a.u.
The fluorescence intensity of `AAATGAACTGCCAATAACATGCAAGAATGAAGACGGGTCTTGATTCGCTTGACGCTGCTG` is reported as 5300 a.u.
`GCCCACTTTTTTTCAAATGTGTGAGACACCCATACCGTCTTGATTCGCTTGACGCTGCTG` has a fluorescence intensity of 5310 a.u.

Series 3
Target: RNA binding protein fox-1 homolog 2, RRM domain, GST-SBP tag (RBFOX2, Homo sapiens, UniProt O43251-10, residues 100-194)
Technique: RNA Bind-n-Seq
Molecule type: RNA
Medium: in vitro
Tested at: 365 nM
Setting: natural RNA segment, single round, ends assumed
Baseline: no-protein control
Reading: higher = stronger binding
Construct (chain): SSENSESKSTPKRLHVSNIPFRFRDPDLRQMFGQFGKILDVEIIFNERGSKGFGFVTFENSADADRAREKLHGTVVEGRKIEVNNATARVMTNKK
For `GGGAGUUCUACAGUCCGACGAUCUUGAAUGUAGCUCUUGGGAAUGCAUUAUUACAUCCAUUUCUGUAACAUAAUAAUAUGUUGCAUGCAGUUAUAUUUUCUAUUUAGUCUGUAUAUUUUGUUCUUCAUAGUCUUGGAAUUCUCGGGUGCCAA`, “RBNS enrichment (R)” read 1.14.
For `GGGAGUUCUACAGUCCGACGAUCCUUCUUGAGACGCCUCUCAAAGCUCUUAAAUGGCUCCUGUGCUAUGUGUGGUGUUGGCAGUCUAAUUUGCUUCUGUUAAAUGUUGUAGAACCUUUUUCACUAGGAAAUAAUGGAAUUCUCGGGUGCCAA`, “RBNS enrichment (R)” read 0.478.
`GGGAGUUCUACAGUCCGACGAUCUGAAAACCAACACGAAAGCUAAUCAUGACAAGGAAGUAAAACAUAGGAUCUGAGAGGAGAGGGUCCUUGCUCCAUGCAUGAGGACAUCCAUCCCACCCACUGCCUCUGAAUGGAAUUCUCGGGUGCCAA`: “RBNS enrichment (R)” 2.63.
`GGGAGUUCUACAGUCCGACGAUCUGUGCUUUUUAAGAAUAUUUUUAGACUAUUUCUUUUUAUAGGGGCUUUGCUGAAUUCUAACAUUAAAUCACAGCCCAAAAUUUGAUGGACUAAUUAUUAUUUUAAAAUAUUGGAAUUCUCGGGUGCCAA` — result for “RBNS enrichment (R)”: 0.854.
`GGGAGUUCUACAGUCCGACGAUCCACUUCAGAGGGAUGGAGAAAGAAGUGGAGAAGGUCCUUAACCUGCAGUUUCUGCCUUUAAGCCAAAGAAACAAGCUGUGCGGACCUGGCCCAUUAAGAGGCCUCAGUGGUGGAAUUCUCGGGUGCCAA` — result for “RBNS enrichment (R)”: 0.659.
`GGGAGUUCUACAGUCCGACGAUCCAAGAAAACUACCUGGUGAUGCAAUUUUUUUUUUUAAUUUAACUUUAAAAUAAAUGCUGCAUUUGGUAAAGCUGGCAGUGGAACCAGUUGGAUGACCCAGCUCCUGUCUCUGGAAUUCUCGGGUGCCAA` — result for “RBNS enrichment (R)”: 0.278.

Single results of other studies
With `PhoQ, residues 284 288 289 292 302 303 HSSMNL` the fold induction was 15.5 (PhoP, residues 12 14 15 18 19 LWHVM (Escherichia coli, UniProt P23836); Sort-seq, measured: YFP reporter; E. coli; PhoQ-PhoP variant library, together with: 10 µM Mg2+; baseline: high Mg2+ state, higher = stronger signaling).

Excerpt of the above (series 1):
`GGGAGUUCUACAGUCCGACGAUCUGGCGCUGGUGGCAUGCGGGGAGGAAGAGGUGGCCUCAUGGAUCGUGGUGGUCCCGGUGGAAUGUUCAGAGGUGGCCGUGGUGGAGACAGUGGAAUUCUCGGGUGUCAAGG` has a log2 enrichment of 0.164.
For `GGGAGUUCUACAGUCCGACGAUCGCAGGAAGUAAAAACAAAUGGAAAUGCUUCGGAUAGUGGCAGGGGUGGGGGUUGCUAAGGAAAGGGUGGGAUGGGAGUGGGUAAGGAGUUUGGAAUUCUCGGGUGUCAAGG`, the log2 enrichment was -0.141.
